Experimental data pooled from the literature.
Compare with care: the assays were run in different laboratories.
RPS6KA1 N-terminal kinase domain: Ribosomal protein S6 kinase alpha-1, N-terminal kinase domain (RPS6KA1, Homo sapiens, UniProt Q15418)
RPS6KA1 C-terminal kinase domain: Ribosomal protein S6 kinase alpha-1, C-terminal kinase domain (RPS6KA1, Homo sapiens, UniProt Q15418)

C=CC(=O)N1CCCC(n2c(=O)c3ncccc3n(Cc3ccc(Oc4ccccc4)cc3)c2=O)C1 (stereo not drawn) — remaining binding (RPS6KA1 N-terminal kinase domain; binding, competition with immobilised ligand; 1 µM): 96%
CCN1CCN(Cc2ccc(C(=O)Nc3ccc(C)c(NCc4cnc5[nH]ccc5c4OC)c3)cc2C(F)(F)F)CC1 — remaining binding (RPS6KA1 C-terminal kinase domain; binding, competition with immobilised ligand; 1 µM): 91%
CNC(=O)C1CCN(c2cc(C)c(F)cc2NC(=O)c2ccc(-c3cc(O)ccc3C)c(C)c2)CC1 — remaining binding (RPS6KA1 N-terminal kinase domain; binding, competition with immobilised ligand; 1 µM): 95%
Cc1cnc2nc1Nc1cccc(c1)COC/C=C/COCc1cc(ccc1OCCN1CCOCC1)N2 — remaining binding (RPS6KA1 C-terminal kinase domain; binding, competition with immobilised ligand; 0.1 µM): 98%
CC(C)=CC1OC(C)(C)C2C=C3C(=O)C(Cl)=CC(O)C3C3C(O)C4OC4C(=O)C132 (stereo not drawn) — remaining binding (RPS6KA1 N-terminal kinase domain; cell-free assay, competition with immobilised ligand; 10 µM): 90%
Nc1ncc2c(n1)-c1c([nH]c3ccc(C4=CCOCC4)cc13)CCC2 — remaining binding (RPS6KA1 N-terminal kinase domain; binding, competition with immobilised ligand; 1 µM): 100%
C=CC(=O)N1CCc2ccc(-n3c(=O)ccc4cnc5ccc(-c6cnn(C)c6)cc5c43)cc21 — remaining binding (RPS6KA1 N-terminal kinase domain; KINOMEscan; 1 µM; reference: DMSO control): 72%
COc1cc(Nc2nc(C)cc(-c3cnn4nc(OC)ccc34)n2)cc(C(F)(F)F)c1 — remaining binding (RPS6KA1 C-terminal kinase domain; binding, competition with immobilised ligand; 1 µM): 88%
COc1c(Cl)cccc1Nc1c(-c2ccncc2C#C[C@@]2(C)CCCN2C(=O)/C=C/CN(C)C)[nH]c2c1C(=O)NCC2 — remaining binding (RPS6KA1 N-terminal kinase domain; binding, competition with immobilised ligand; 3 µM): 86%
CNC1C[S+]2CC[S+]3CC[S+](C1)[Ru-4]321([N]=C=S)[n]2c3ccc(OC)cc3c3c4c(c5cc(F)c[n+]1c5c32)C(=O)NC4=O (stereo not drawn) — remaining binding (RPS6KA1 C-terminal kinase domain; KinomeScan; 0.1 µM; reference: untreated): 77%
COc1cc(Nc2nccc(-c3cnn4nc(OC)ccc34)n2)cc(C(F)(F)F)c1 — remaining binding (RPS6KA1 C-terminal kinase domain; binding, competition with immobilised ligand; 1 µM): 100%
Cc1ccc(-c2c(/C=C(\C#N)C(=O)NC(C)C)n(CCCO)c3ncnc(N)c23)cc1 — remaining binding (RPS6KA1 C-terminal kinase domain; binding, competition with immobilised ligand; 1 µM): 29%
